# Results of several laboratories.
# Lines come from different studies, so protocols differ.
SMILES,organism,test,system,setting,MIC
C[C@@H]1C(=O)O[C@@H](C)/C=C/C=C\[C@@H](C)[C@@H]2C=C[C@@H]3C[C@@]4(C)O[C@H]4[C@@H](C)[C@H]3[C@@H]2C(=O)C(Cl)(Cl)C1=O,Staphylococcus aureus,,MSSA clinical isolate,"resistant, PEN, ERY, CLI, TET, SXT",0.05 µg/mL
C#CCNC(=O)C(C)(C)O/N=C(\C(=O)N[C@@H]1C(=O)N(S(=O)(=O)O)[C@H]1C)c1csc(N)n1,Proteus vulgaris,agar dilution,ATCC 29905 susceptible,,0.125 µg/mL
CC[C@H](C)[C@@H]1NC(=O)[C@@H]([C@@H](C)O)NC(=O)CNC(=O)[C@H](CC(=O)O)NC(=O)CNC(=O)[C@H](CC(=O)O)NC(=O)CNC(=O)[C@H]2CCCCN2C(=O)[C@@H](NC(=O)[C@H](CC(=O)O)NC(=O)/C=C/CCCCCCCCCC(C)C)CNC(=O)[C@@H]2CCCN2C1=O,Staphylococcus aureus,broth microdilution,"MRSA USA300, Mueller-Hinton broth, Mg2+ 10 mg/L","16 h, 37 °C, added: Ca2+ 2.5 mM",4 µg/mL
C=CCO/N=C(\C(=O)N[C@@H]1C(=O)N(OS(=O)(=O)O)C1(C)C)c1csc(N)n1,Shigella flexneri,agar dilution,"ATCC 12022, susceptible",,0.5 µg/mL
CO[C@H]1O[C@H](COC(c2ccccc2)(c2ccccc2)c2ccccc2)[C@@H](OS(=O)(=O)c2ccccc2)[C@H](OS(=O)(=O)c2ccccc2)[C@H]1OS(=O)(=O)c1ccccc1,Bacillus cereus,"microbial growth, broth dilution",,,0.5 µg/mL
CC1(C)[C@H](NC(=O)/C(=N\OCC(=O)N2CCC(C(=O)O)CC2)c2csc(N)n2)C(=O)N1OS(=O)(=O)O,Proteus vulgaris,agar dilution,"ATCC 29905, susceptible",,0.125 µg/mL
CCNC(=S)NN=Cc1c2ccccc2cc2ccccc12.Cc1ccc(C(C)C)cc1.[Cl-].[Cl-].[Ru+2],"Salmonella typhimurium, Pseudomonas aeruginosa, Escherichia coli",broth microdilution,,tested 2 to 50 µM,inactive
CC(=O)NC[C@H]1CN(c2ccc(N3CCN(C(=O)CN)CC3)c(F)c2)C(=O)O1,Shigella flexneri,broth dilution,CGMCC 1.187,,> 200 µM
Cc1c(CN(C)C(=O)/C=C/c2cnc3c(c2)CC(N)C(=O)N3)oc2ccccc12 (stereo not shown),Escherichia coli,"microbial growth, broth dilution",BAA2471,clinical isolate,4 µg/mL
CC1C=CC=CC(C)C2C=CC3CC(C)(O)C(Cl)C(C)C3C2C(=O)C(Cl)(Cl)C(=O)C(C)C(=O)O1 (stereo not shown),Staphylococcus aureus,,MRSA clinical isolate,"resistant, OXA, CIP, MXF, GEN, CLI",0.05 µg/mL
C=C/C=C(\C)CC[C@@H](O)C[C@H](O)CC(=O)OC,Bacillus cereus,"microbial growth, broth dilution",ATCC10876,,128 µg/mL
CC1(C)[C@H](NC(=O)/C(=N\OCCN)c2nsc(N)n2)C(=O)N1OS(=O)(=O)O,Shigella flexneri,agar dilution,"ATCC 12022, susceptible",,8 µg/mL
CCCC(C)Oc1cccc(NC(=O)c2cccnc2)c1 (stereo not shown),Nakaseomyces glabratus,"microbial growth, broth dilution",MY1381,,32 µg/mL

# Some of these lines once more:
SMILES,organism,test,system,setting,MIC
CO[C@H]1O[C@H](COC(c2ccccc2)(c2ccccc2)c2ccccc2)[C@@H](OS(=O)(=O)c2ccccc2)[C@H](OS(=O)(=O)c2ccccc2)[C@H]1OS(=O)(=O)c1ccccc1,Bacillus cereus,"microbial growth, broth dilution",,,0.5 µg/mL
CC[C@H](C)[C@@H]1NC(=O)[C@@H]([C@@H](C)O)NC(=O)CNC(=O)[C@H](CC(=O)O)NC(=O)CNC(=O)[C@H](CC(=O)O)NC(=O)CNC(=O)[C@H]2CCCCN2C(=O)[C@@H](NC(=O)[C@H](CC(=O)O)NC(=O)/C=C/CCCCCCCCCC(C)C)CNC(=O)[C@@H]2CCCN2C1=O,Staphylococcus aureus,broth microdilution,"MRSA USA300, Mueller-Hinton broth, Mg2+ 10 mg/L","16 h, 37 °C, added: Ca2+ 2.5 mM",4 µg/mL
